Measurements from different studies.
Every numbered part comes from another study and shows a few of its results, in no order. Substitutions count along the parent as printed.

Block 1 — method: protein binding microarray; form: double-stranded DNA, one strand shown; matrix: in vitro; concentration: not given; relative to: not given; reading: higher = stronger binding
Target: Histone acetyltransferase KAT6A, winged helix 1, GST fusion (KAT6A, Homo sapiens, UniProt Q92794, residues 1-85)
Setting: 8-mer, flanks averaged, mean of 2 arrays, mostly near background
Residues (chain): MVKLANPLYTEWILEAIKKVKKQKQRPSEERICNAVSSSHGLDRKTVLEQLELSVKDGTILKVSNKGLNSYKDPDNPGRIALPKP
Strand | E-score
GCGCACCA | 0.303
GAGCGTTA | 0.0494
CGTGCGAG | 0.23
CCTCATTA | -0.125
GATCCACC | 0.036
GTAGCGCA | 0.287
AACCACTA | -0.239
AAGTATGG | -0.175
AACACAGG | -0.241
CTGGAGAC | -0.124
TAGTAGCA | -0.00941
GCGACCGA | 0.121
GCCAGACA | -0.146
AGCAACCA | -0.24
AGATAAGC | -0.083
AGTGGGCG | -0.069

Block 2 — method: DHFR PCA, deep sequencing; matrix: yeast; added: (+)-ABA 0.11 µM; relative to: wild-type fitted maximum; reading: higher = stronger binding
Target: ABI1, truncated, D143A, DHFR fusion (Arabidopsis thaliana)
Setting: methotrexate growth selection, single substitutions
Starting sequence: PYL1, truncated, DHFR fusion (Arabidopsis thaliana); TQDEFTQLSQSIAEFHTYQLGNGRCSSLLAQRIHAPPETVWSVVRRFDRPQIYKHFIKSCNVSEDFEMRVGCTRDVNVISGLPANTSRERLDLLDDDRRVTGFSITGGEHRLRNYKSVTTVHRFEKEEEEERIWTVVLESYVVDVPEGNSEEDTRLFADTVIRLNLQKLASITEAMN
Variant | relative binding score [%]
A35D | -1.5
G148N | -4.36
E139Q | 27.3
M176H | 10.7
L166T | 2.38
Q31M | -1.5
Q167D | 8.59
E89T | 2.51
C25V | 61.4
T17A | 10.4
V121D | -4.19
S42I | -3.48
E174M | 8.51
T1Y | 37.2
I12M | 2.43
A30E | 2.14

Block 3 — target: OGT, full length, His-tagged (human); method: phage display, sequencing; matrix: in vitro; concentration: 1 µg OGT; relative to: input library; reading: higher = stronger binding; starting sequence: peptide; TAPFYPPAYQIQVFK
Setting: single substitutions, 15-mer displayed peptide, unchanged parent 19.6
Variant | fold enrichment
TAPFYPPAYQIDVFK [Q12D] | 11.2 fold
TAPEYPPAYQIQVFK [F4E] | 8.8 fold
TAPFYPYAYQIQVFK [P7Y] | 1.93 fold
TAPYYPPAYQIQVFK [F4Y] | 19 fold
SAPFYPPAYQIQVFK [T1S] | 18.8 fold
TAPFYPPAYQIQVTK [F14T] | 19.3 fold
TAPFYPPAYGIQVFK [Q10G] | 0.748 fold
TAPFLPPAYQIQVFK [Y5L] | 1.61 fold
TAPFYPPEYQIQVFK [A8E] | 5.2 fold
KAPFYPPAYQIQVFK [T1K] | 14.3 fold
TAPFYPPAYQISVFK [Q12S] | 8.24 fold
TAPFYPPAYKIQVFK [Q10K] | 2.06 fold
TAPFYPPAYQIQVFH [K15H] | 8.84 fold
TAPFYPPWYQIQVFK [A8W] | 3.15 fold
TAPFYPPPYQIQVFK [A8P] | 0.67 fold

Block 4 — target: CCNE2, cyclin fold, Cln2 fusion (human); method: yeast growth competition, sequencing; matrix: yeast; setting: weak parent motif; relative to: not given; reading: higher = stronger binding
Starting sequence: ORC1 docking peptide (human); PRARKRLELGNLG; partner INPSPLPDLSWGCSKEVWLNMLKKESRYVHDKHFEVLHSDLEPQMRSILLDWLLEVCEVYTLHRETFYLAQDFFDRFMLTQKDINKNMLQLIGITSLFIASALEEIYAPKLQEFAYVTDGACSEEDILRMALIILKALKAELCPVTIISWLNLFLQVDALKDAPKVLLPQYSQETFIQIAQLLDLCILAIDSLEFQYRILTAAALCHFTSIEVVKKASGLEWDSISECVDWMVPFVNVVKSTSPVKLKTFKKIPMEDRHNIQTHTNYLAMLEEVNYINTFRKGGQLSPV
Variant | normalised enrichment score
G10K | -0.341
P1Y | 0.194
R6F | 1.32
A3Y | 1.27
L9R | 0.232
G10V | 0.573
P1M | 0.717
A3H | 0.7
R2C | -0.00162
R6L | 1.28
G13V | -0.185
G10H | 0.865
R2W | 1.15
N11T | 1.12
A3F | 0.267
L7T | -0.593
E8W | 1.18
E8V | 0.571
L9H | 0.479
E8C | 1.64
R6W | 0.593
P1Q | 1.04
G13S | 0.356
K5D | 0.201
L7D | 0.159

Block 5 — target: CREBZF, bZIP domain (human); method: DHFR protein complementation; matrix: yeast; relative to: wild-type JUN-FOS pair; reading: higher = stronger binding
Setting: single substitutions, most at no-binding floor
Starting sequence: JUN, bZIP domain (human); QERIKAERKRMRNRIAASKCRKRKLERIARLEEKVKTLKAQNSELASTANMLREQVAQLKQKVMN; partner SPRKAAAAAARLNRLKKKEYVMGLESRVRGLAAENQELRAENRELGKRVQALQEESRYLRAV
Variant | binding fitness [natural log]
E44N | -1.51
K36D | -1.13
L31I | -1.49
A40S | -1.49
L52C | -1.46
A40F | -1.49
L45Y | -1.35
E44G | -1.47
T48H | -1.49
K39F | -1.4
N42W | -1.51
L45M | -1.51
K34S | -1.35
K39P | -1.51
S47C | -1.35
E54T | -1.5
R53H | -1.49
Q55Y | -1.52
L52M | -1.56
K39E | -1.49
M51G | -1.44
A57R | -1.35
L31N | -1.62
T37G | -1.42
L45I | -1.48

Block 6 — method: protein-binding microarray; form: double-stranded DNA, one strand shown; matrix: in vitro; concentration: 250 nM; setting: 60-bp whole probe; added: salmon DNA 0.4 mg/ml; relative to: random background probes; reading: higher = stronger binding; all sequences stand within: GCCTAGCAC … GTCTTGATTCGCTTGACGCTGCTG
Target: Interferon regulatory factor 7, full length, phosphomimetic (IRF7, Homo sapiens, UniProt Q92985, residues 1-503, S101K/S471D/S472D/S475D/S476D/S477D/S483D/S484D/S487D)
Construct (chain): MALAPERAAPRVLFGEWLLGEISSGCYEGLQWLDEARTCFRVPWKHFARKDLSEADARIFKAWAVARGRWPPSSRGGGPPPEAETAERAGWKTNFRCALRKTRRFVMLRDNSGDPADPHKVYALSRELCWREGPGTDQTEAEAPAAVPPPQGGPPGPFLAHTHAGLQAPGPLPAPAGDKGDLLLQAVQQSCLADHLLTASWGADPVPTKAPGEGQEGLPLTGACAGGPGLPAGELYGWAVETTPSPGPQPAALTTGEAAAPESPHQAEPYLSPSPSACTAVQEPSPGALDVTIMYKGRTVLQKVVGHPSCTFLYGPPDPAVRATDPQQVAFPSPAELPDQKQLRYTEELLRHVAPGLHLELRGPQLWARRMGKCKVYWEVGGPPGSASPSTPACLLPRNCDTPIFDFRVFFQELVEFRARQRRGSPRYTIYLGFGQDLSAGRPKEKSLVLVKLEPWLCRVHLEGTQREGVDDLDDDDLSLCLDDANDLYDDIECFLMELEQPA
Strand | log fluorescence
TTAGATATCAGTTCCGATTAGTGCTAG | 1.12 z-score
GACGGTTTCGGGTATAGGGACGTGCTA | 6.4 z-score
TGAGGTTTCGGACTGGGTTAGTGCTAG | 3.43 z-score
GACGGTATCCTACTGGTGACGTGCTAG | -0.477 z-score
GACGGTTTCCTATCCCTGACGTGCTAG | 2.28 z-score
TTAGGTTTCGGACTGGGTAAGTGCTAG | 4.34 z-score
GACGCTTCCCTTTTCCTGACGTGCTAG | 1.52 z-score
TTAGGTCTCGGACTGGGATAGTGCTAG | 0.227 z-score
GACGGTTTCGACTTTCGTGACGTGCTA | 10.6 z-score
TCATCTGTCAGTTTTGAACTGTGCTAG | 0.352 z-score
TTAGGTTCCGGTTTCGGTGAGTGCTAG | 7.47 z-score
GACGGTTTCGCCTATCGGGACGTGCTA | 4.04 z-score
TTAGGTTCCCTTTTCGTTTAGTGCTAG | 5.16 z-score
GACGGACTGGGTCTTGGGACGTGCTAG | -0.7 z-score
CTTAGAATAATTTTTTAGCTTGTGCTA | -0.0597 z-score
TTAGATTTCGGGCCTGGATTAGTGCTA | 0.447 z-score

Single results of other studies
Molecule | target | assay | test system | setting | how to read | measurement | value
PhoQ, residues 284 288 289 292 302 303 TTCLQL | PhoP, residues 12 14 15 18 19 NFCKL (Escherichia coli, UniProt P23836) | Sort-seq, refers to: YFP reporter | E. coli | PhoQ-PhoP variant library, added: 10 µM Mg2+ | relative to: high Mg2+ state, higher = stronger signaling | fold induction | 14.2
